Results collected from several papers.
A part holds a random share of what one study measured. Changes are numbered by the printed parent chain.

Set 1
Target: RING finger protein unkempt homolog, zinc fingers 1-6, GST-SBP tag (UNK, Homo sapiens, UniProt Q9C0B0, residues 30-357)
UniProt Q9C0B0, sequence (30-357, looked up): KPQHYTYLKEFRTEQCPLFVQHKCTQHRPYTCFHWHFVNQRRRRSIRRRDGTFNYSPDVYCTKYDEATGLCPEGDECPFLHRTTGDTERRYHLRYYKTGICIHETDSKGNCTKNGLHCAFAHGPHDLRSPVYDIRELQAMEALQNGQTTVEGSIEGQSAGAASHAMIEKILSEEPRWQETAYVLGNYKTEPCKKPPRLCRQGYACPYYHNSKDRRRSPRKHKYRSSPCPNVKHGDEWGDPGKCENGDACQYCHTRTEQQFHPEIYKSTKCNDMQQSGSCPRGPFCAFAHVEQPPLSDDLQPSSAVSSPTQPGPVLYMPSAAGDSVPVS
Method: RNA Bind-n-Seq
Form: RNA
Sample: in vitro
Concentration: not given
Setting: RNA with constant flanks, human-mouse chimeric sites, ends assumed
Reference: input RNA pool
Reading: higher = stronger binding
| Strand | bound/input enrichment |
| --- | --- |
| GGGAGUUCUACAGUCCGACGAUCUUGGAAGGACCAGAGCCUAAUCAACUGAAACCAUUAGUUAUACAGGCUAUGCCCACCCUAAUAGAACUAAUGAAAGACCCCAGUGUAGUUGUUCGAGAUACAGCUGCGUGGACUGUGGGCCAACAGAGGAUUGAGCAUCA | 0.426 ratio |
| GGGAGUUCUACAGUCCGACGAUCGAGCCAAGCCGGCAGUUUGUAAAGGACUCAAUUCGGCUGGUUAAAAGAUGCACCAAACCUGAUAGAAAAGAAUUCCAGAAGAUUGCCAUGGCUACAGCUAUAGGAUUUGCUAUCAUGGGACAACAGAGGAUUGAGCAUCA | 0.222 ratio |
| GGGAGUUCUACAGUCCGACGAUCGCUCCUCUUCCGCACUCAGCCUGGGGACACUGGGCUGGGACCAGAAUCCAGCUUUCUUUUAAAACUCUCAGUGUAACUGUAUCCCGUGACAUUUCAUUUUUUUUUUAUAGUGUAUUUUUUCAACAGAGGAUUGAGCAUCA | 11.8 ratio |
| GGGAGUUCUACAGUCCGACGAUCCCCCAAUACCAUUUGCAGGUCUGGAACCUGCAUUCUUUUUUUAAAAAACAUGUAUACAUUUUAGGGCUGUAGAUUUAUUUUCCUGGUUUCUUUUCCAAUUGCUGACUUUUGAGCACAGAACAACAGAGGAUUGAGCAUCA | 1.78 ratio |
| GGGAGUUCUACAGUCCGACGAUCAGCACAACCCCAGCAAAGCUCAGGAACCCUUGUACAAGUGAACAAAACUGCACCAGCCCAUUUAGCUACAAAAAUGUGCUUAGUCUUACUGACAGAGGAGAGUUUUUUAAUGAACUUGUUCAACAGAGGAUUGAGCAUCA | 1.4 ratio |
| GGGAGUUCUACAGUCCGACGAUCACCAUUUUCGCGGUUCAGGCUUUGUGUGUAGUUCACUUACGGUAUUAAAUUAUUAUUGCCCUUAGUUUAAAGUAAGGAUAAUUGCAUUUAAAGAGGUUACUGAAUGUUACUCUGAAACUUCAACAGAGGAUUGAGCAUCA | 0.305 ratio |

Set 2
Target: RNA binding protein fox-1 homolog 2, RRM domain, GST-SBP tag (RBFOX2, Homo sapiens, UniProt O43251-10, residues 100-194)
Method: RNA Bind-n-Seq
Form: RNA
Sample: in vitro
Concentration: 365 nM
Setting: natural RNA segment, single round, ends assumed
Reference: no-protein control
Reading: higher = stronger binding
| Strand | RBNS enrichment (R) |
| --- | --- |
| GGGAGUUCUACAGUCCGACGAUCGCAAGAUAACUACUCGUGAGUAUUCAGAAUGUUGUUCCUAAUAAAUGCACUUGUUGUCUGUCUUCUUUAAUCAAAUCACAUCUUAUAUACAGCAGUCAGAGAUGAGUAUAUGGAAUUCUCGGGUGCCAA | 0.42 |
| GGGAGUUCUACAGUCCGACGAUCCCUUUGUUAGGAAAAAGCACAGCCUCAGAUGGAGGCAGCCUAAACUGUGUUCUUGUUUUGUUCAUGGUGUUUCUAAGCGUUUUGCUGAAGCUGCUCUCAGGCACCCCCUUUGGAAUUCUCGGGUGCCAA | 0.837 |
| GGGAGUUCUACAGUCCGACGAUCAAGCUUUUUGGUGUGAACUGGAAAAAAAAAAAAGGUGCAUUUUUCUCCGUGAAGGUCUUAGUGUAUGUGUUUUGCUUGUUAACUGUCAUCGUGGUUGGGAUUAGACCUGUUGGAAUUCUCGGGUGCCAA | 0.499 |
| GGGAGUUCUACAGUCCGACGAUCUGAUUGUAGUAACUCUAUUGGCAUCUUGUAAAUUGGCUCAUUUCCUACGUGAUGUACAUAGAAUAUUAUAGCCUAAAGAUUUUCCAGUUACUUGCGGUCUUUUUAAAUUGUGGAAUUCUCGGGUGCCAA | 0.559 |
| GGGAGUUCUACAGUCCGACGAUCAGCACUGUGUGACUUUGUGAAGGACACUGCCUUGGAAAUGUUGACUGACGUUUAUGCCUGGUGAUAGCAUGUCCCGAGAAGCAUGGACAUGGAGUUUUGUUUUAAUAAACUGGAAUUCUCGGGUGCCAA | 17.2 |
| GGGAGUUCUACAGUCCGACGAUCUCAUCAGGCCUUGGAGCAGUCACUGCUUUAUUCCGCAAAAAUUAUUUGGUAGGAAAUUUUUGGGAGAUCUGAUUUUCUUAUCCAAGUUUUGUAAAUAGUUGUUAUUUCUAUGGAAUUCUCGGGUGCCAA | 0.615 |

Set 3
Target: CCND2, cyclin fold, Cln2 fusion (human)
Method: yeast growth competition, sequencing
Sample: yeast
Setting: weak parent motif
Reference: not given
Reading: higher = stronger binding
Starting sequence: SLBP docking peptide (human); ARYKRKLLINDFG; partner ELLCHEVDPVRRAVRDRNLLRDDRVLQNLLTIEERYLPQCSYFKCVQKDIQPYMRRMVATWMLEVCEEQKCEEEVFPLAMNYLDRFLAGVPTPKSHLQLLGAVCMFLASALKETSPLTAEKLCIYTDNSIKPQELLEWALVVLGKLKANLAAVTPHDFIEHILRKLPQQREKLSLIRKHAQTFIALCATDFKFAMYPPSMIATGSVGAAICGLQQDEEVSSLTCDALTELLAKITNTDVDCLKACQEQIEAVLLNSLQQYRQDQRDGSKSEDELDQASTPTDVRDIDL
| Change | normalised enrichment score |
| --- | --- |
| AFYKRKLLINDFG [R2F] | -0.297 |
| ARRKRKLLINDFG [Y3R] | -0.0455 |
| ARYKEKLLINDFG [R5E] | 0.274 |
| ARYKRVLLINDFG [K6V] | 0.504 |
| ATYKRKLLINDFG [R2T] | 0.791 |

Single results of other studies
| Molecule | target | test | system | conditions | scale | quantity | result |
| --- | --- | --- | --- | --- | --- | --- | --- |
| PhoQ, residues 284 288 289 292 302 303 ASHLAV | PhoP, residues 12 14 15 18 19 HLGGL (Escherichia coli, UniProt P23836) | Sort-seq, item: YFP reporter | E. coli | PhoQ-PhoP variant library, added: 10 µM Mg2+ | reference: high Mg2+ state, higher = stronger signaling | fold induction | 1.01 |
